Results of several laboratories.
Each numbered part is a random draw from the data of one study; scales do not carry over between parts. Changes are numbered by the printed parent chain.

Sample 1
Target: CCNF, cyclin fold, Cln2 fusion (human)
Technique: yeast growth competition, sequencing
Matrix: yeast
Notes: strong parent motif
Baseline: not given
Reading: higher = stronger binding
Parent: E2F1 docking peptide (human); PPVKRRLDFETDH; partner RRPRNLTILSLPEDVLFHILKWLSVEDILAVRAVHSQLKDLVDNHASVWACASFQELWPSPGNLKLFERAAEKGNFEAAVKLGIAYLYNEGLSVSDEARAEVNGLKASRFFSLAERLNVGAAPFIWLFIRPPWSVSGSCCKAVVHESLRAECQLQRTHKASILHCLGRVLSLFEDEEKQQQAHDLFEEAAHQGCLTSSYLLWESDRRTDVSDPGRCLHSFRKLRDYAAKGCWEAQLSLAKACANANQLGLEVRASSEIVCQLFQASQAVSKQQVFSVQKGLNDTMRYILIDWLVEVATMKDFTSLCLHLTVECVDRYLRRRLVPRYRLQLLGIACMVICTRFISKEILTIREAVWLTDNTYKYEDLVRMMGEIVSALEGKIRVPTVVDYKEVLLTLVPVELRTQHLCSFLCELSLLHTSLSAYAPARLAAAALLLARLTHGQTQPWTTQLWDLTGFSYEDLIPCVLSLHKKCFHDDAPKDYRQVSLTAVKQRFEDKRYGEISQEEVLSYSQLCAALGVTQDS
Substitution	normalised enrichment score
T11I	7.1
R6D	0.308
R5D	-0.176
E10I	7.74
E10W	8.93
R6A	7.03
V3C	6.76
P2A	7.82

Sample 2
Target: Histone acetyltransferase KAT6A, winged helix 1, GST fusion (KAT6A, Homo sapiens, UniProt Q92794, residues 1-85)
Technique: protein binding microarray
Form: double-stranded DNA, one strand shown
Matrix: in vitro
Concentration: not given
Notes: 8-mer, flanks averaged, mean of 2 arrays, mostly near background
Baseline: not given
Reading: higher = stronger binding
Target sequence (chain): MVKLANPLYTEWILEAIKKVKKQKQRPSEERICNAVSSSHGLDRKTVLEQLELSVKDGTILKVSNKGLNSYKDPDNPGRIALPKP
Oligonucleotide	E-score
CCTAACCG	0.134
ACGATTCC	-0.0554
TAGACAAA	-0.169
GAATTGAA	-0.245
CGCGTTGA	0.274
AGCTGGAA	-0.178
CGAATAGA	-0.191
AGCATGTC	-0.153
AAAAAGTT	-0.224
ACGCGTTA	0.3

Sample 3
Target: Ras GTPase-activating protein-binding protein 1, RRM domain (G3BP1, Homo sapiens, UniProt Q13283)
Chain of UniProt Q13283 (whole entry, looked up): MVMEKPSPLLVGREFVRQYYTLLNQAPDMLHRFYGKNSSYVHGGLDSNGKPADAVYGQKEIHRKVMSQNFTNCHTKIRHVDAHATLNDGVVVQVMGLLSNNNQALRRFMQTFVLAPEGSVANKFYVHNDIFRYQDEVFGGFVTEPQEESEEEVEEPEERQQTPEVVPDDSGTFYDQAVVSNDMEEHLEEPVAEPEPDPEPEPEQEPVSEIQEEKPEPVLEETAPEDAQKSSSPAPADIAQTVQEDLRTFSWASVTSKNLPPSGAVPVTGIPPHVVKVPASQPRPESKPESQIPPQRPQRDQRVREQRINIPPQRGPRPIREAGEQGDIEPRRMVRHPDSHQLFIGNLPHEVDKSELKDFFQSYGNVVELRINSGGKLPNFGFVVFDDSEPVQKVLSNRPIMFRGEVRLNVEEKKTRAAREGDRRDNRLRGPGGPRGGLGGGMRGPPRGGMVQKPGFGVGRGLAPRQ
Technique: RNA Bind-n-Seq
Form: RNA
Matrix: in vitro
Concentration: 1 µM
Notes: whole 134-nt RNA, ends assumed
Added: 150 mM KCl
Baseline: input library
Reading: higher = stronger binding
Shared flanks, not repeated: GGGAGUUCUACAGUCCGACGAUC … UGGAAUUCUCGGGUGUCAAGG
Oligonucleotide	log2 enrichment
UGGGAGGUGGAUUUUGUUUAUUUUUUUAGCUCAUUUCCAGGGGUGGGAAUUUUUUUUUAAUAUGUGUCAUGAAUAAAGUUAUUUUUGAAA	1.87
UAACUUUAGAGGAGGAUCUGAUGGAUAUGGCAGUGGACGAGGAUUUGGGGAUGGCUAUAAUGGGUAUGGAGGAGGACCUGGAGGUGGCAA	-0.553
CCUCAAGUCCUGUGCUACACAUCGUAUGUACCGAAUCGGGCGGGCGGGCGGGAAAGUAUUAUGUUACGCCGUUCGGAUCUGCACUUCCAG	0.897
AGUCCUGUGCUACACAUCGUAUGUACCGAAUCGGUUUUUUUGGUUUUUUUGGUUUGGAAAGUAUUAUGUUACGCCGUUCGGAUCUGCACU	-0.281
CUCAAGUCCUGUGCUACACAUCGUAUGUACCGAAUCGGGCCGGCCGGGCCGGGAAAGUAUUAUGUUACGCCGUUCGGAUCUGCACUUCCA	-0.548
AAGUCCUGUGCUACACAUCGUAUGUACCGAAUCGGGUGGGUUUGGGUUUUUUUGGGAAAGUAUUAUGUUACGCCGUUCGGAUCUGCACUU	0.487

Single results of other studies
Substance	target	assay	system	setting	scale	measurement	value
PhoQ, residues 284 288 289 292 302 303 TASMAF	PhoP, residues 12 14 15 18 19 GQALL (Escherichia coli, UniProt P23836)	Sort-seq, item: YFP reporter	E. coli	PhoQ-PhoP variant library, added: 10 µM Mg2+	baseline: high Mg2+ state, higher = stronger signaling	fold induction	19.8

A few entries again (sample 2):
Oligonucleotide	E-score
AAAAAGTT	-0.224
TAGACAAA	-0.169
GAATTGAA	-0.245
